Measured values from different studies.

Compound | test | system | conditions | endpoint | value
CC(C)C[C@H](NC(=O)CNC(=O)c1cc(Cl)ccc1Cl)B(O)O | refers to: Vomiting, all grades | newly diagnosed multiple myeloma patients | oral, dose not given, maintenance phase, new onset, cycle 17 or later | patients with adverse event | 28%
C=CC(=O)NC1CCN(c2ncc3ncnc(Nc4ccc(Oc5ccc6c(c5)ncn6C)c(C)c4)c3n2)CC1 |  | male patients | oral, dose not given, on-treatment adverse events | patients with Pruritus | 0%
COc1ccc([C@@H](O)c2cc(-c3ncnc4cc(N5CCOCC5)ccc34)c(F)cc2Cl)nn1 | refers to: Diarrhea | locally advanced rectal cancer patients | dose not given, all dose groups, with: capecitabine plus radiotherapy | patients with TEAE | 79%
CCOc1c([C@H](C)n2nc(C)c3c(N)ncnc32)cc(Cl)c(F)c1[C@@H]1CNC(=O)C1 | refers to: QTcF above 500 ms | previously treated B-cell malignancy | oral, 15 mg once daily, baseline QTcF ≤450 ms | patients | 0%
COc1cc2nccc(Oc3ccc(NC(=O)c4cc5c(n(-c6ccccc6)c4=O)CCCC5=O)nc3)c2cc1OC |  | patients with relapsed/refractory AML | oral, 10 mg once daily | patients with serious TEAEs | 85.7%
CNC(=O)c1ccc(-c2cnc3ncc(Cc4ccc5ncccc5c4)n3n2)cc1F | refers to: Asthenia, all grades | cancer patients | oral, 600 mg twice daily, expansion cohort, any causality | patients with adverse event | 8%
NC(=O)N1c2ccccc2C=Cc2ccccc21 |  | male patients | oral, dose not given, treatment-related adverse events | patients with upper abdominal pain | 0%
C[C@@H](Nc1cc(F)cc(F)c1)c1cc(C(=O)N(C)C)cc2c(=O)cc(N3CCOCC3)oc12 | refers to: Paresthesia | advanced solid tumour patients | oral, dose not given, dose finding | patients discontinuing for AE | 0%
COc1cc(Nc2ncc3c(n2)-c2ccc(Cl)cc2C(c2c(F)cccc2OC)=NC3)ccc1C(=O)O | refers to: Headache, grade 1 | cancer patients, phase 1/2 | oral, dose not given, with: pembrolizumab | patients with adverse event | 13%
Cc1cc(NC2CCN(C(=O)OC3CCN(C(=O)/C=C/CN(C)C)C3)CC2)n2ncc(C(C)C)c2n1 (stereo not shown) | Phase I dose escalation CTCAE v4.0, refers to: Dyspnea | patients with advanced solid tumours | dose not given, all dose schedules any grade | patients with adverse event | 15%
Cc1cc(-c2nnc(N)nc2-c2ccc(F)cc2)cc(Cl)n1 | refers to: type 1 diabetes mellitus | IO-naive mCRPC patients, male | oral, dose not given, treatment-related, grade 1 | patients with immune-mediated AE | 0%
CNC(=O)c1cc(Oc2ccc(NC(=O)Nc3cc(C(C)(C)C)nn3-c3ccc4ncccc4c3)c(F)c2)ccn1 |  | patients | oral, dose not given, cycles 1 and 2, Medium AUC subgroup | patients with grade 1 musculoskeletal disorders | 7%
O=C(Nc1nc2cccc(-c3ccc(CN4CCS(=O)(=O)CC4)cc3)n2n1)C1CC1 |  | rheumatoid arthritis patients | oral, 100 mg twice daily, 4 weeks, TEAE regardless of relatedness | patients with Gastrointestinal disorders | 16.7%

For quick reference, copied from above:
Compound | test | system | conditions | endpoint | value
CC(C)C[C@H](NC(=O)CNC(=O)c1cc(Cl)ccc1Cl)B(O)O | refers to: Vomiting, all grades | newly diagnosed multiple myeloma patients | oral, dose not given, maintenance phase, new onset, cycle 17 or later | patients with adverse event | 28%
